Measurements collected from several papers.
Numbered parts are unrelated; each lists some results of a single study. Changes are numbered by the printed parent chain.

Series 1
Target: Histone acetyltransferase KAT6A, both winged helices, GST fusion (KAT6A, Homo sapiens, UniProt Q92794, residues 1-181)
Technique: protein binding microarray
Form: double-stranded DNA, one strand shown
Sample: in vitro
Concentration: not given
Setting: 8-mer, flanks averaged, mean of 2 arrays, mostly near background
Reference: not given
Direction: higher = stronger binding
Construct (chain): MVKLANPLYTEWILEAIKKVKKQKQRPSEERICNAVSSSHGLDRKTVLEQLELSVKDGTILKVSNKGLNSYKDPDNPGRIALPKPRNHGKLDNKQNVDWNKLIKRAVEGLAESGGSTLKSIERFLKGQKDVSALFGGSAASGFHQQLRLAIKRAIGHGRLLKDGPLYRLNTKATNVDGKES
| Oligonucleotide | E-score |
| --- | --- |
| CGCTCGTC | 0.17 |
| ACTGCGCA | 0.235 |
| AGGCTTCG | -0.0478 |
| GCAAATGC | 0.0675 |
| GTAGTGAA | -0.047 |
| GCCTGACA | -0.0898 |
| ATGCTTGA | -0.121 |
| CTGACAAA | -0.134 |
| AATTTACA | -0.177 |

Series 2
Target: Centromere-binding protein 1, full length, His-tagged (CBF1, Saccharomyces cerevisiae, UniProt P17106, residues 1-351)
Sequence of UniProt P17106 (whole entry, looked up): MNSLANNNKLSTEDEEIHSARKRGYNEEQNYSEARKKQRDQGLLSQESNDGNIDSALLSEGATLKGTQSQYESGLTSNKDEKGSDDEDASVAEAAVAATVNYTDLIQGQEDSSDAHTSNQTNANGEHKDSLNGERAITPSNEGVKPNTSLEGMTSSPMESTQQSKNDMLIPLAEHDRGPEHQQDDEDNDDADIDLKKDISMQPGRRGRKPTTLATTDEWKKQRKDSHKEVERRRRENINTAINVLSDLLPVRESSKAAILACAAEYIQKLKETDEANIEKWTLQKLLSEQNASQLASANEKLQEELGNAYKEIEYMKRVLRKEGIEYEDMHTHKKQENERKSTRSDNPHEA
Technique: competition protein-binding microarray
Form: double-stranded DNA, one strand shown
Sample: in vitro
Concentration: 2 µM
Setting: whole 60-bp probe, lowest competitor level
With: Pho4 competitor, 0.05 µM
Direction: higher = stronger binding
All sequences stand within: … GTCTTGATTCGCTTGACGCTGCTG
| Oligonucleotide | fluorescence intensity [a.u.] |
| --- | --- |
| TATTGAAGGTACCATCACATGCTTACTCACTTTGCG | 377 |
| TACTGAATGCTACTGACCGTGACGGTCTATCAGGCT | 61.6 |
| CTTCTGTAAATTTTTCACGTGATCTGACGCGCCCCG | 5020 |
| CGTTATTTACTTCCACACGTGCTTTAAATGATGTGA | 2240 |
| CGGGGTTAAGTTTTTCACGTGGACTGCTTGCAGCAG | 589 |
| CTGGGCCTCCAGCGCCACGTGCCGCCGCTGGCACTG | 563 |
| ATATCTCGCACTTCTCTCGTGATGGTCATTGAGTGC | 187 |
| CAGGTGTGGTTCAACCAAGATTAAGAGAGTATGATA | 71.9 |
| CGCGCTGCTCTAAGCACCGTGGGTAGGCCATGAAAT | 64.3 |
| CGTCCTAGTGATTGGTATGTGGGTGCCATGAGGAAG | 97.6 |
| CGGGGTTAAGTTTGTCACCGGACTTGCTTGCAGCAG | 92.2 |
| CTTTCCCGATCTTGCACCGTGGGTGTAGCACATTTG | 63 |
| AACAATAACTGCCAAAACGTGGTGAACGGACGCTGA | 88.4 |

Series 3
Target: Ras GTPase-activating protein-binding protein 1, RRM domain (G3BP1, Homo sapiens, UniProt Q13283)
Sequence of UniProt Q13283 (whole entry, looked up): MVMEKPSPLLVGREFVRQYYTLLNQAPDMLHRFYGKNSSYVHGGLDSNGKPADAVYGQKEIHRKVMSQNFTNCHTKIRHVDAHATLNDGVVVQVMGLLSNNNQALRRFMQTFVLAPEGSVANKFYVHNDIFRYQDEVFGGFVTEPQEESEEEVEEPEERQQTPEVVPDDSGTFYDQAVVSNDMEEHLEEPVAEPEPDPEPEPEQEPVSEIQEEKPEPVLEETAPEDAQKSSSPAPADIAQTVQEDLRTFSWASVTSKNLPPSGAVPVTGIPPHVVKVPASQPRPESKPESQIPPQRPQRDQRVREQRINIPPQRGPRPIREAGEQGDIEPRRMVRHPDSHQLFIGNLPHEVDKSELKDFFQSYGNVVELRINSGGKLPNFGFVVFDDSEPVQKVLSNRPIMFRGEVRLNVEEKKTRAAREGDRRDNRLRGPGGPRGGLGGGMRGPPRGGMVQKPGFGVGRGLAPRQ
Technique: RNA Bind-n-Seq
Form: RNA
Sample: in vitro
Concentration: 1 µM
Setting: whole 134-nt RNA, ends assumed
With: 150 mM KCl
Reference: input library
Direction: higher = stronger binding
All sequences stand within: GGGAGUUCUACAGUCCGACGAUC … UGGAAUUCUCGGGUGUCAAGG
| Oligonucleotide | log2 enrichment |
| --- | --- |
| AUUCUUCAUUGAGGGUGAGGAUCUCCCAAUGGGAGACUGCUCUGAAAAGAGCAUGUGCUUUUUGAAUUAGAUAACCUACUAUAAUCAUGG | -0.0679 |
| GUCCUGUGCUACACAUCGUAUGUACCGAAUCAAACCCCCCCAAACCCCCAAAUUUAAAAAAGUAUUAUGUUACGCCGUUCGGAUCUGCAC | -0.108 |
| UGACCUGCACGGACAUCAACACCCUGACAAGGCAGAAGGAACUUCUCCUGCAGAAGCUGAGCACAUUUGAGGAGACCAACCGCACCCUCC | -0.184 |
| UAACUUUAGAGGAGGAUCUGAUGGAUAUGGCAGUGGACGUGGAUUUGGGGAUUGCUAUAAUGGGUAUGGAGGAGGACCUGGAGGUGGCAA | -0.316 |
| CAAGUCCUGUGCUACACAUCGUAUGUACCGAAUCGGGGUUUGGUUUGGGUUUGGGGAAAGUAUUAUGUUACGCCGUUCGGAUCUGCACUU | -0.343 |
| CAAGUCCUGUGCUACACAUCGUAUGUACCGAAUCGGAAAGGUUUGGAAAAAAAGGAAAGUAUUAUGUUACGCCGUUCGGAUCUGCACUUC | -0.169 |
| GUCCUGUGCUACACAUCGUAUGUACCGAAUCGGGGAAAAAGGGGAAAGGGGAAAGGGGAAAGUAUUAUGUUACGCCGUUCGGAUCUGCAC | 1.64 |
| CCUGUGCUACACAUCGUAUGUACCGAAUCGGGGUUUUUGGGGAAAGGGGAAAAAAAGGGGAAAGUAUUAUGUUACGCCGUUCGGAUCUGC | 0.399 |

Series 4
Target: RNA binding protein fox-1 homolog 2, RRM domain, GST-SBP tag (RBFOX2, Homo sapiens, UniProt O43251-10, residues 100-194)
Technique: RNA Bind-n-Seq
Form: RNA
Sample: in vitro
Concentration: 365 nM
Setting: natural RNA segment, single round, ends assumed
Reference: no-protein control
Direction: higher = stronger binding
All sequences stand within: GGGAGUUCUACAGUCCGACGAUC … UGGAAUUCUCGGGUGCCAA
Target sequence (chain): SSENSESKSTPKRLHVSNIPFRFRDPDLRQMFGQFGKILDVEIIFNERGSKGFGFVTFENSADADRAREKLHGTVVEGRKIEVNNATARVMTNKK
| Oligonucleotide | RBNS enrichment (R) |
| --- | --- |
| CCUUCCUGUACAUUUUCCUCCACUUUUUUUCAUUACUCAACUUGUUCCCCAAGAAGGUAGUGUACUAGGAUCCUAUUAGUCUGCUUUUCAUAUACUGUACAUCAAGUAUA | 0.649 |
| GCAGUGUCCAGAAGCGGCCUGUGCGUUCCCUUCAGUACUGCAGCGCCACCCAGUGGAAGGACACUCUUGGCUCGUUUGGGCUCAAGGCACCGCAGCCUGUCAGCCAACAU | 0.638 |
| CGCAGUUUCCAUGUGUUUCAGGAUCUUCGGGCUGUCGUUAGACAGGUUAAUGAAGAACACUUCUCAACAGUUUCCUUUUUGUUUUCCUUUAUAAUUCACUAAAAUAAAGC | 0.335 |
| AAUUAAGGACUGAGAAAUGACCAUAUCUUAAACUAUCUACGACAAAGUGAACUUAAAAGGACAUGCCCACUGAAUUCAGGUCCUUUGAGUAAAAAAAAAAUCUUCUGCUG | 0.623 |
| AGAAAUAAUAUGUAAGAAUGGCCUCAAGGCAGACCACUUUAAGUUUGGCUAGACUUCAUAUCGUGGAAGUAUUGUCUAUUUCAGUGUGAAACUAUCUUGAAUUUGCAAAU | 0.474 |
| GACCAAAAGUCCCCAGUGACACCAACACAAAGCUCGCAGUUCCGUUUCCUUCUCGUUCCUAUUCUCCGUCCUCCACAUGCAGUCCUUUGCUCAGGAAGUCUUUGGGGAAA | 0.513 |
| UCAGAGUGGAACAAAGAGUGGGAAGAGGUGAUCUGUAAUGUUACAAAUUGUGCUAUUACUCCAAGGUCCAACUUUUCCAGUGCAUUACAUGGUAUUGUAUAUCAGUGGAG | 0.333 |
| GACCAAACACGCUUUCAGCAGCUGCCUGCUCUGGACUUUGAAAGAGGUCAGGUCUUGCCCUAAGCUCAAAACAAGUGAGAGGUGUCCUGACCUAGCUCAUAGGGCAAAUG | 0.24 |
| GUCUAUACAUGGGUUUCAUUGAUGGUAUCUGUAUCAUCUUGACAAAUCGUGAACUGCUGCUGUAUGGCUAGACUUUGCCUAUUUACUCUGUUAUGCAAACAGUAAUUUUU | 0.424 |
| AUGCUAAGACUCUUUGGUAAUCUAGAAGAGCUUCUAGUGAGAACCUGAUGGUAGGUCGUGGGGCCUGGUGAUUUCAAACAAAGCCAUCGCCUGCGUUCUUUCUCCUUCUG | 0.293 |
| UAGUUAGAAGAAGAAUCCAGUUUCUGCCUGUGAACUUAUUUGACUUUAGAUUGUCUCAUCUUGUGACUUUAUAAUGCCUGUCCCCUCCACUGGUCAAUUCAGCAUAUGGA | 0.69 |
| ACAAACCCAAGAAACGCAUCCCCAUUGUGUGAUGUGUUCAGAUGCAUCUGGCACCAAUUAGGUAUUUCUUAAAACAGGACUCAUCUGUCAGAGUGCACAUGAAAAAUCAG | 0.44 |

Series 5
Target: Interferon regulatory factor 7, full length, phosphomimetic (IRF7, Homo sapiens, UniProt Q92985, residues 1-503, S471D/S472D/S475D/S476D/S477D/S483D/S484D/S487D)
Technique: protein-binding microarray
Form: double-stranded DNA, one strand shown
Sample: in vitro
Concentration: 2200 nM top
Setting: 60-bp whole probe
With: salmon DNA 0.4 mg/ml
Reference: random background probes
Direction: higher = stronger binding
All sequences stand within: GCCTAGCAC … GTCTTGATTCGCTTGACGCTGCTG
Residues (chain): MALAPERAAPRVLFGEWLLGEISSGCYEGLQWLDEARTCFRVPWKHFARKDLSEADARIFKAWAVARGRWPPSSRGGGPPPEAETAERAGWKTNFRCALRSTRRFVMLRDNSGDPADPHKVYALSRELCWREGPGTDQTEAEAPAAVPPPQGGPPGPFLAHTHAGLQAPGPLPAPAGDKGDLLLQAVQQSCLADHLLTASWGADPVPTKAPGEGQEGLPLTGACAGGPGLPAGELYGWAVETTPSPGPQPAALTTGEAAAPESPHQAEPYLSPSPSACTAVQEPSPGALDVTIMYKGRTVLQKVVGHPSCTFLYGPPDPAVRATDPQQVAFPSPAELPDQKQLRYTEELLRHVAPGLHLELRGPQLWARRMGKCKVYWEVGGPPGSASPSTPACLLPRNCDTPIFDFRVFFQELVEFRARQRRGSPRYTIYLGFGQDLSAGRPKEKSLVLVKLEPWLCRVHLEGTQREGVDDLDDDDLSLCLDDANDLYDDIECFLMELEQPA
| Oligonucleotide | fitted relative affinity [z-score] |
| --- | --- |
| GACGACCTGAGTTTCGAGACGTGCTAG | 2.01 |
| TTAGGTTTCGGTTCCGGTTAGTGCTAG | 11.3 |
| TAAGGTATCGACTATCGGTTAGTGCTA | 0.167 |
| GACGGTTTCCTTTTTCTGACGTGCTAG | 4.57 |
| TTAGATCTCGGACTGGATTAGTGCTAG | 0.207 |
| TATAGAGTAGTTTTTCAACCAGTGCTA | -0.00776 |
| GACGGTTTCGGGTTTCGGGAAGTGCTA | 8.72 |
| ATATTGATGGCTCTCTGGACGTGCTAG | 0.0738 |
| GACGATTTCGGTTCCGGGACGTGCTAG | 6.55 |
| TTAGGTTTCGGTATCGGTTCGTGCTAG | 8.65 |

Series 6
Target: Sal-like protein 4, full length isoform B (SALL4, Homo sapiens, UniProt Q9UJQ4-2, residues 1-616)
Technique: universal PBM
Form: double-stranded DNA, one strand shown
Sample: in vitro
Concentration: not given
Setting: 8-mer, flanks averaged, mean of replicates
Direction: higher = stronger binding
| Oligonucleotide | E-score |
| --- | --- |
| AAGCCACG | -0.204 |
| GAGGCGAA | -0.135 |
| TAACTAGA | 0.275 |
| CGACACTA | -0.15 |
| CCTCGATA | 0.119 |
| GGATACCC | -0.209 |
| CGGCGCAA | -0.254 |
| GAACGGCC | -0.254 |
| ACAACGCG | -0.106 |
| GTGGGCCA | -0.0946 |
| GGTTCCTA | -0.0978 |
| CCCCGCAA | -0.0968 |
| CGAGGCAA | -0.0996 |
| CTAAAGCA | 0.0299 |
| CCAGCCGG | -0.32 |
| ACGACATC | -0.191 |
| AAGGAGAT | 0.0377 |
| GAACCTCC | -0.238 |
| CTTCCAAC | -0.178 |
| GTCAAACA | 0.0404 |
| AGCTTGTA | 0.0773 |
| GTCGGATA | -0.00514 |
| TCTAGCCA | 0.0741 |

Mixed results
CCNB1: CCNB1, cyclin fold, Cln2 fusion (human)
P1: SGO1 docking peptide (human); PLAKRALKYTDEK
| Molecule | target or system | test | system | conditions | scale | measurement | result |
| --- | --- | --- | --- | --- | --- | --- | --- |
| P1 E12A | CCNB1 | yeast growth competition, sequencing | yeast | weak parent motif | reference: not given, higher = stronger binding | normalised enrichment score | 0.369 |
| ASPLKKLFTSTGL | Saccharomyces cerevisiae | binding, competitive growth deep sequencing | peptide, cyclin D3-Cln2 fusion strain | concentration not given, peptide library 1 | direction not given | growth enrichment score | -0.198 |
| P1 K8A | CCNB1 | yeast growth competition, sequencing | yeast | weak parent motif | reference: not given, higher = stronger binding | normalised enrichment score | 0.279 |
